Experimental data of several laboratories.
± gives the spread as reported.
PDE8A: High affinity cAMP-specific and IBMX-insensitive 3',5'-cyclic phosphodiesterase 8A (PDE8A, Homo sapiens, UniProt O60658)
Genome polyprotein NS3 helicase domain: Genome polyprotein, NS3 helicase domain (Hepatitis C virus genotype 1b, UniProt Q9WMX2)
SLCO1B1: Solute carrier organic anion transporter family member 1B1 (SLCO1B1, Homo sapiens, UniProt Q9Y6L6)
SRC SH3-SH2-kinase domain: Proto-oncogene tyrosine-protein kinase Src, SH3-SH2-kinase domain (SRC, Gallus gallus, UniProt P00523)

Structure (SMILES)	target	test	test system	setting	IC50
Cc1ccccc1-c1cc(N2CCN(C)CC2)ccc1N(C)C(=O)C(C)(C)c1cc(C(F)(F)F)cc(C(F)(F)F)c1	TACR1 (Homo sapiens, UniProt P25103)	IP1 accumulation, antagonist, HTRF	–	90 min preincubation, added: substance P 10 nM	0.316 µM
NS(=O)(=O)c1ccc(N2N=C(C(F)(F)F)CC2c2ccc(F)cc2F)cc1 (centres unmarked)	Cyclooxygenase-2 (Canis lupus familiaris, UniProt Q8SPQ9)	PGE2 formation, inhibitor	dog whole blood	24 h, 37 °C, added: LPS	11.7 µM
CC(=O)c1ccc(S(=O)(=O)NCc2csc(-c3ccccc3)n2)cc1	Trypanothione synthetase (Trypanosoma brucei, UniProt Q586P2)	enzyme activity, inhibitor	–	–	8.7 µM
Nc1nc(Cl)nc2c1ncn2Cc1cc(OCC(F)F)cc(-c2cccnc2F)c1	PDE8A	enzyme activity, inhibitor, radiometric	–	–	0.0059 µM
Nc1ncnc2c1c(-c1ccc(Oc3ccccc3)cc1)nn2C1CCCC1	Proto-oncogene tyrosine-protein kinase Src, autophosphorylated (SRC, Gallus gallus, UniProt P00523, Y527F)	photo-crosslinking probe binding, competition with HT-1	mammalian cell lysate	activated kinase	1.1 ± 0.5 µM
CCN(CC)c1ccc(-c2nc3ccc(-c4nc5ccc(C)c(S(=O)(=O)O)c5s4)cc3s2)cc1	Genome polyprotein NS3 helicase domain	helicase activity, inhibitor, MBHA	–	–	26 ± 21 µM
COc1ccc([C@@H]2CC(=O)c3c(O)cc(O[C@@H]4O[C@H](CO[C@@H]5O[C@@H](C)[C@H](O)[C@@H](O)[C@H]5O)[C@@H](O)[C@H](O)[C@H]4O)cc3O2)cc1O	SLCO1B1	8-FcA uptake, inhibitor, flow cytometry	HEK293 expressing SLCO1B1	10 min, added: 8-FcA 2.5 µM	> 100 µM
O=C1Nc2ccc(-c3ccc(C(=O)N4CCOCC4)cc3)cc2/C1=C/c1ccc(N2CCNCC2)cc1	FGFR3 (Homo sapiens, UniProt P22607)	enzyme activity, inhibitor	–	–	4.51 µM
CC1CCN(Cc2ccc(CNC(=O)Cc3cc(Cl)c4c(c3)OCCO4)cc2)CC1	Trypanothione synthetase (Trypanosoma brucei brucei, UniProt Q586P2)	enzyme activity, BIOMOL Green phosphate release	–	1 h preincubation	13.1 ± 0.7 µM
Cc1ccc(/N=C/c2ccc(F)cc2)cc1	Xanthine dehydrogenase/oxidase, oxidase form (XDH, Bos taurus, UniProt P80457)	enzyme activity, inhibitor	–	–	≤ 469 µM
COC(=O)N1CCC(CN2CCC(CNC(=O)c3cccc4[nH]c(C(C)C)nc34)CC2)CC1	SLCO1B1	transporter uptake, inhibitor	–	–	> 10 µM
COP(=O)(OC)OC[C@H]1OC(O)(COP(=O)(O)O)[C@@H](O)[C@@H]1O (some centres unmarked)	Phosphoglycerate mutase 1 (Homo sapiens, UniProt P18669)	enzyme activity, inhibitor	–	–	1230 µM
O=C1NC(=O)/C(=C/c2ccc(C(=O)NC[C@@H]3C[C@@H](SC(c4ccccc4)(c4ccccc4)c4ccccc4)CN3C(=O)c3ccccc3C(=O)c3ccc(F)cc3F)cc2)S1	PLA2G4A (Homo sapiens, UniProt P47712)	enzyme activity, inhibitor, radiometric	–	–	1.23 µM
CCC(NC(=O)C(CC(C)C)NC(=O)CCc1ccncc1)C(=O)C(=O)NCc1cc(OC)cc(OC)c1 (centres unmarked)	Calpain-2 catalytic subunit (Capn2, Mus musculus, UniProt O08529)	enzyme activity, inhibitor	mouse pons-cerebellum membranes	added: calcium 2 mM	0.214 µM
CCOc1cncc(-c2ccc(NC(=O)C(CC)c3ccnc(NS(=O)(=O)C4CC4)n3)nc2)n1 (centres unmarked)	Ctps2 (Mus musculus, UniProt P70303)	cell viability	CTPS-null Jurkat with mouse CTPS2	3 days	0.023 µM
COCCCN1CCc2c(Cc3ccc(Cl)cc3)[nH]c3c(OC(F)F)ccc(c23)C1=O	PDE8A	enzyme activity, inhibitor	–	–	> 10 µM

Structure (SMILES)	target	test	test system	setting	IC50
Cc1nc2ccc(Br)cc2c(=O)n1N	PLA2G5 (Homo sapiens, UniProt P39877)	enzyme activity, inhibitor, colorimetric	–	–	16.1 ± 0.85 µM
OC[C@@H]1NC[C@H](O)[C@@H]1O	Mannosyl-oligosaccharide alpha-1,2-mannosidase 1B (mns1B, Aspergillus phoenicis, UniProt Q12563)	enzyme activity, inhibitor, mass spectrometry	–	–	1000 µM
O=CCCC(=O)O	HIF1AN (Homo sapiens, UniProt Q9NWT6)	enzyme activity, inhibitor	–	–	4500 µM
C=CCn1c(=S)[nH]c2cc3ccccc3cc2c1=O	Genome polyprotein, protease (Hepatitis C virus genotype 1b, UniProt O92972)	enzyme activity, inhibitor, FRET	–	–	20.4 µM
NC(=O)[C@@H]1CCCNC(=O)[C@H](Cc2ccc([N+](=O)[O-])cc2)NC(=O)[C@H](CC2CCCCC2)NC(=O)[C@H](CC2CC2)NC(=O)/C=C/C(=O)N1	SRC SH3-SH2-kinase domain	enzyme activity, inhibitor, Z'-LYTE FRET	–	Src residues 83-533, added: 50 µM ATP	2 ± 0.1 µM
CC(=N)N(C)c1ccc(C(=O)Nc2ccc(Cl)cc2C(=O)Nc2ccc(Cl)cn2)cc1	F10 (Homo sapiens, UniProt P00742)	enzyme activity, inhibitor, absorbance	–	–	0.0003 µM
NC(=O)[C@@H]1CCCNC(=O)[C@H](Cc2ccc([N+](=O)[O-])cc2)NC(=O)[C@H](Cc2ccco2)NC(=O)[C@H](CC2CC2)NC(=O)/C=C/C(=O)N1	HCK (Homo sapiens, UniProt P08631)	enzyme activity, inhibitor, absorbance	–	–	> 100 µM
O=S(=O)(Nc1cscn1)c1c(F)cc(NCc2c(F)ccc(F)c2CN2CCC2)cc1F	SCN1A (Homo sapiens, UniProt P35498)	ion current, inhibitor	–	–	8.75 µM
C/C(=N\NC(N)=S)c1ccc2c(c1)sc1nc(=O)c(C#N)cn12	DNA gyrase (gyrA/gyrB, Escherichia coli, UniProt P0AES4+P0AES6)	enzyme activity, inhibitor	–	–	2.62 µM
CNC(=O)c1ccc(Oc2nc3c(c(=O)n(C)c(=O)n3C)n2CCC(C)C)cc1	HPGD (Homo sapiens, UniProt P15428)	–	–	–	> 57 µM
CCCCCCCCCCCCCCCC(=O)NC[C@H](NC(=O)CNc1ccc([N+](=O)[O-])c2nonc12)C(=O)N[C@H](C(=O)N[C@@H](CCCCN)C(=O)N[C@H](C(=O)N[C@@H](CCCCN)C(=O)N[C@@H](CCCCN)C(=O)O)[C@@H](C)CC)C(C)C	Palmitoyl-protein thioesterase 1 (Homo sapiens, UniProt P50897)	enzyme activity, inhibitor	lymphoblast or fibroblast lysate	pH 4.7, added: MUGS-palmitate	10 µM
Nc1nc(-c2ccc(Cl)c(Cl)c2)cs1	Capsid scaffolding protein, protease domain (Human herpesvirus 8 type P, UniProt Q2HRB6)	protease activity, inhibitor	–	added: fluorogenic peptide substrate	38.4 µM
O=C(Nc1cccc(C(=O)Nc2ccc(S(=O)(=O)O)c3cc(S(=O)(=O)O)cc(S(=O)(=O)O)c23)c1)Nc1cccc(C(=O)Nc2ccc(S(=O)(=O)O)c3cc(S(=O)(=O)O)cc(S(=O)(=O)O)c23)c1	Genome polyprotein NS3 helicase domain	helicase activity, molecular beacon helicase	–	added: RNA substrate	5.1 ± 1.2 µM
CC(C)C[C@H](NC(=O)[C@H](CO)NC(=O)[C@@H](NC(=O)[C@@H]1CCCN1C(=O)[C@H](CCCNC(=N)N)NC(=O)[C@H](CCC(=O)O)NC(=O)[C@H](CCCCN)NC(=O)[C@H](CCCNC(=N)N)NC(=O)[C@H](CCCNC(=N)N)NC(=O)CNC(=O)[C@H](C)NC(=O)[C@@H](N)Cc1ccc(O)cc1)[C@@H](C)O)C(=O)N[C@@H](CC(N)=O)C(=O)N[C@H](C(=O)N[C@@H](Cc1ccccc1)C(=O)N1CCC[C@H]1C(=O)O)C(C)C	Mitogen-activated protein kinase 14 (Rattus norvegicus, UniProt P70618, D315S/D316E/E317A)	kinase activity, inhibitor, competitive kinase	–	–	> 100 µM
CN1C(=O)/C=C\C(=O)N[C@H](C(=O)O)CCNC(=O)[C@H](CCCNC(=O)c2cnccn2)NC(=O)[C@H](Cc2ccc(F)cc2)NC(=O)[C@@H]1CC1CCCCC1	SRC SH3-SH2-kinase domain	enzyme activity, inhibitor, Z'-LYTE FRET	–	Src residues 83-533, added: 50 µM ATP	0.9 ± 0.1 µM
COc1ccc(OC)c(S(=O)(=O)NCc2nn(-c3ccccc3)nc2C)c1	Trypanothione synthetase (Trypanosoma brucei, UniProt Q586P2)	enzyme activity, inhibitor	–	–	> 100 µM
